Assay results of several laboratories.
Numbered parts are unrelated; each lists some results of a single study. Substitutions count along the parent as printed.

Series 1
Target: Interferon regulatory factor 7, full length, phosphomimetic (IRF7, Homo sapiens, UniProt Q92985, residues 1-503, S471D/S472D/S475D/S476D/S477D/S483D/S484D/S487D)
Technique: protein-binding microarray
Molecule type: double-stranded DNA, one strand shown
Sample: in vitro
Concentration: 2200 nM top
Setting: 60-bp whole probe
With: salmon DNA 0.4 mg/ml
Relative to: random background probes
Direction: higher = stronger binding
All sequences stand within: GCCTAGCAC … GTCTTGATTCGCTTGACGCTGCTG
Residues (chain): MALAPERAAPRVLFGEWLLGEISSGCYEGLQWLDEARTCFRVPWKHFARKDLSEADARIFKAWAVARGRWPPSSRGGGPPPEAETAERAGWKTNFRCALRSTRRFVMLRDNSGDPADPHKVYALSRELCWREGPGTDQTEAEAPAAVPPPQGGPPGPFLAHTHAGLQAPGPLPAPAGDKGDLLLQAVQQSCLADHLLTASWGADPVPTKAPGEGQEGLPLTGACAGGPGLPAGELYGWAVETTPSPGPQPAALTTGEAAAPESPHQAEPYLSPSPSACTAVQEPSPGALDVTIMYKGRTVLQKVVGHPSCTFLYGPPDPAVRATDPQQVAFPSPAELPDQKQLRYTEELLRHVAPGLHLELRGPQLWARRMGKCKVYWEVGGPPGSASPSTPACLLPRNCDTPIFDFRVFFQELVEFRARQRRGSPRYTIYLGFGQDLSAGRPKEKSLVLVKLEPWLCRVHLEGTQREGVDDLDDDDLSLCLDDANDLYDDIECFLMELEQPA
Strand	fitted relative affinity
GACGGTTTCGAATATCGGGACGTGCTA	2.17 z-score
TGAAATTTTAATAACACAGAGTGCTAG	-1.14 z-score
TTAGCTCTCGGTCTCGGTTAGTGCTAG	0.922 z-score
CTGAGGCTGTGTTTTCACTTTGTGCTA	3.68 z-score
GAAGATTCCAGTTTCGAGACGTGCTAG	4.65 z-score
TTAGAATTCAGTTCCGATTAGTGCTAG	0.607 z-score
TTAGATATCAGACTGGAGTAGTGCTAG	-0.332 z-score
GACGGTATCGGGTATCTGGACGTGCTA	0.0505 z-score

Series 2
Target: Histone acetyltransferase KAT6A, both winged helices, GST fusion (KAT6A, Homo sapiens, UniProt Q92794, residues 1-181)
Technique: protein binding microarray
Molecule type: double-stranded DNA, one strand shown
Sample: in vitro
Concentration: not given
Setting: 8-mer, flanks averaged, mean of 2 arrays, mostly near background
Relative to: not given
Direction: higher = stronger binding
Construct (chain): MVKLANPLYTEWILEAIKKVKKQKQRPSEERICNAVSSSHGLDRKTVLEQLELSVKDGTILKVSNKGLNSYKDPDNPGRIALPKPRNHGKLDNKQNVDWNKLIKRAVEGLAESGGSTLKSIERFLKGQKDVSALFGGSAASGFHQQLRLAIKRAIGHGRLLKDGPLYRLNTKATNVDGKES
Strand	E-score
CGCGCCTC	0.315
AGTAAACG	0.0849
ACCTGCCG	0.07
AACCCAGG	-0.14
TCACATCA	-0.105
CCGATGTC	0.0125
CCCTACCG	0.00987
GCGTTAGC	0.222

Series 3
Target: Prothrombin, mature alpha-thrombin (F2, Homo sapiens, UniProt P00734)
Technique: aptamer microarray, sandwich
Molecule type: DNA with 2'F-ANA
Sample: in vitro
Concentration: 200 nM
Setting: whole 15-mer aptamer, many near background
With: Cy3 exosite-II aptamer, 400 nM
Direction: higher = stronger binding
Strand: GGTTGGTGTGGTTGG
Modification	mean fluorescence intensity
2'F-ANA at 2 3 8 10 11 14 15	264 a.u.
2'F-ANA at 6 8 10 12 14	99 a.u.
2'F-ANA at 3 4 5 7 10 11	51.7 a.u.
2'F-ANA at 1 8 9 13 14	54.4 a.u.
2'F-ANA at 1 2 5 7 10 12 13 15	46.9 a.u.
2'F-ANA at 3 4 6 11 12 13 14	281 a.u.
2'F-ANA at 4 12 13	430 a.u.
2'F-ANA at 1 3 4 5 7 8 9 11 13 15	59.8 a.u.

Single results of other studies
Parent: viral docking peptide; KGVKRKLFAEDSS; partner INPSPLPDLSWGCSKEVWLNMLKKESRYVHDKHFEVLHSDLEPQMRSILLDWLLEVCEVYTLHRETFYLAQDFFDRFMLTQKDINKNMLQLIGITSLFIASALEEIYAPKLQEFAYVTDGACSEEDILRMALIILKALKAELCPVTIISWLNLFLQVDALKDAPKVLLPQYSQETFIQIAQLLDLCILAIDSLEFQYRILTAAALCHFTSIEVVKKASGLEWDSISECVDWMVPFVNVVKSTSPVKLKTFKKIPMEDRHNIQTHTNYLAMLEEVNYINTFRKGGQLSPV
Variant	target	test	test system	conditions	how to read	endpoint	value
KGVKRKLFPEDSS [A9P]	CCNE2, cyclin fold, Cln2 fusion (human)	yeast growth competition, sequencing	yeast	strong parent motif	relative to: not given, higher = stronger binding	normalised enrichment score	6.1

Some of these lines once more (series 3):
Modification	mean fluorescence intensity
2'F-ANA at 1 8 9 13 14	54.4 a.u.
2'F-ANA at 1 2 5 7 10 12 13 15	46.9 a.u.
2'F-ANA at 3 4 6 11 12 13 14	281 a.u.
